Results collected from several papers.
A part holds a random share of what one study measured. “And” joins repeats or separate records; there may be more than shown.
Chain of UniProt P42679 (whole entry, looked up): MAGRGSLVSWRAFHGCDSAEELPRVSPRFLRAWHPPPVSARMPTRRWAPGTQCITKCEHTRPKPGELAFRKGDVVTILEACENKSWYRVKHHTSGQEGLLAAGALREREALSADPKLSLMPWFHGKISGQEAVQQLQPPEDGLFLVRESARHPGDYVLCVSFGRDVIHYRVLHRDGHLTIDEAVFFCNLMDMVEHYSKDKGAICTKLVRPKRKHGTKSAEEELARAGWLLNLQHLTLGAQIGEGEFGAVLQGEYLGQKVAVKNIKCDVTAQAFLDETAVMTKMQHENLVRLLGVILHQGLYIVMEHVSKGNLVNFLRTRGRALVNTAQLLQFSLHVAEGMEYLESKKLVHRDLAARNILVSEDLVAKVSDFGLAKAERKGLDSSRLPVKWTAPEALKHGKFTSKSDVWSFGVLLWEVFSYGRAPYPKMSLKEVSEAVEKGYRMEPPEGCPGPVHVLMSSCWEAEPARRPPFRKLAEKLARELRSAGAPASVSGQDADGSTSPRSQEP
Chain of UniProt P08069 (whole entry, looked up): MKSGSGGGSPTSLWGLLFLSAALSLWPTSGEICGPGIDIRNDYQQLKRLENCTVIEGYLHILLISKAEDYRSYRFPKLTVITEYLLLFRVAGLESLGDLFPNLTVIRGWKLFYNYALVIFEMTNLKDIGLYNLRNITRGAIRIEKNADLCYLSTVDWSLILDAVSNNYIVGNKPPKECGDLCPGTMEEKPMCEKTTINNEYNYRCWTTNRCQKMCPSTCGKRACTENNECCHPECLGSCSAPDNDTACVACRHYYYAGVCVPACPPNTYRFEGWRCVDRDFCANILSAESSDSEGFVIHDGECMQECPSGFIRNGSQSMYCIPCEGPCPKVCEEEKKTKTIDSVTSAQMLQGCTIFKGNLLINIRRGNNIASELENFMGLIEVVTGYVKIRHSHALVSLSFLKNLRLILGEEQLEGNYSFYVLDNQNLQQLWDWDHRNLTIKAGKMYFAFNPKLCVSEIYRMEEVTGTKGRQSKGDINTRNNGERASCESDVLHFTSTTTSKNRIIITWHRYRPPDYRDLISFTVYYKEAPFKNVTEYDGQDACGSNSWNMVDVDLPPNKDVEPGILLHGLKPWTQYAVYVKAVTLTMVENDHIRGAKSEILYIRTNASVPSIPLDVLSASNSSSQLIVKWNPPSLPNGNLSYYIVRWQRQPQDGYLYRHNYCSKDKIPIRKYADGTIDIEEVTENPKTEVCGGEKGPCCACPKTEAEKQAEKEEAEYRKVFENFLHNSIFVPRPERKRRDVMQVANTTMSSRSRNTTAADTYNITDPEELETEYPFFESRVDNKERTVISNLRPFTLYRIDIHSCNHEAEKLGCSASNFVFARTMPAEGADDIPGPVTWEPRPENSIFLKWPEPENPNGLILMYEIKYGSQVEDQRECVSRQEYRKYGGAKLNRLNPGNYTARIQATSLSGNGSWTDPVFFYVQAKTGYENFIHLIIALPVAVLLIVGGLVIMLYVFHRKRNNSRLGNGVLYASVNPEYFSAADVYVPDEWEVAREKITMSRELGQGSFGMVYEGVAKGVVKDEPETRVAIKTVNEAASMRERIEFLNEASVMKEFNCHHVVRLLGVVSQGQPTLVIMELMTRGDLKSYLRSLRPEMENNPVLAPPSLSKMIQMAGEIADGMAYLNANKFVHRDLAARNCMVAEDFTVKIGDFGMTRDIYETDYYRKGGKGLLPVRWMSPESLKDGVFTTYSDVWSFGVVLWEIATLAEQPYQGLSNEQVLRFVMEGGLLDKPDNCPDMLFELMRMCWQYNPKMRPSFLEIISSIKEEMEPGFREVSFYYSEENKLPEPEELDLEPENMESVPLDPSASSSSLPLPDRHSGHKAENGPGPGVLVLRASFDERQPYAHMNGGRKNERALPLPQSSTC
Chain of UniProt P25098 (whole entry, looked up): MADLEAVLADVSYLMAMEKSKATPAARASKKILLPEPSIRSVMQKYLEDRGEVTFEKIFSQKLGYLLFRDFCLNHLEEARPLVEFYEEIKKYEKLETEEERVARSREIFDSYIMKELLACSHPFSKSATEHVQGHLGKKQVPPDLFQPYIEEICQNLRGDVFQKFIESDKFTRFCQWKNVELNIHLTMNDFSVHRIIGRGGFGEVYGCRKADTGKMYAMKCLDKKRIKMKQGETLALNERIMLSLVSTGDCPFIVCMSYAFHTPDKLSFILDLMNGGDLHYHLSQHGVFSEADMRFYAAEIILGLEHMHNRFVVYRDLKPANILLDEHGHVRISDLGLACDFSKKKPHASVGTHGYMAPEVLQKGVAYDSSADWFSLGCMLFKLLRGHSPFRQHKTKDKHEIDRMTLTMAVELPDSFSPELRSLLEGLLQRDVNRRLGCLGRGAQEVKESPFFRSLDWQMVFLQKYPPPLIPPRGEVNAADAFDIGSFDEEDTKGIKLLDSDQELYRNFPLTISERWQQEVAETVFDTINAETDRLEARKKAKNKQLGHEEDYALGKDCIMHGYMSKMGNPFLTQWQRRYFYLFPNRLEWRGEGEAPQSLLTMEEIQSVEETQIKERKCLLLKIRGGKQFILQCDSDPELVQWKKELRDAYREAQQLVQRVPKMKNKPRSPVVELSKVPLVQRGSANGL
Chain of UniProt P53667 (whole entry, looked up): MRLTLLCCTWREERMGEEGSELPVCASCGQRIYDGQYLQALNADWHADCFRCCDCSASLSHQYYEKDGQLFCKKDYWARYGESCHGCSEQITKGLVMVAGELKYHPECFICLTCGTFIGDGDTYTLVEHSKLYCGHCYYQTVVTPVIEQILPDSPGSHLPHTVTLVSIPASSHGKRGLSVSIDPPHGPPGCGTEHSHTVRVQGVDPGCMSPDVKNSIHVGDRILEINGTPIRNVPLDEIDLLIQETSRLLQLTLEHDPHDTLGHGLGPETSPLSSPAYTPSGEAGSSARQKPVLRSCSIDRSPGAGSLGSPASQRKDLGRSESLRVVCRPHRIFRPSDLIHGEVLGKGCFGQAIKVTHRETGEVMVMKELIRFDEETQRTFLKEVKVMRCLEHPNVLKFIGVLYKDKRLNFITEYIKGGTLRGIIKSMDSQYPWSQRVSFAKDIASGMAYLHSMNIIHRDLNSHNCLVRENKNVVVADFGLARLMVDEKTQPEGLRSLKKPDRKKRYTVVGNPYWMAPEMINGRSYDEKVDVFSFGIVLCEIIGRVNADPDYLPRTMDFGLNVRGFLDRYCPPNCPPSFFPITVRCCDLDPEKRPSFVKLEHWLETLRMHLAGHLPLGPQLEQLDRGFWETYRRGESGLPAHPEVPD
Chain of UniProt Q8IVH8 (whole entry, looked up): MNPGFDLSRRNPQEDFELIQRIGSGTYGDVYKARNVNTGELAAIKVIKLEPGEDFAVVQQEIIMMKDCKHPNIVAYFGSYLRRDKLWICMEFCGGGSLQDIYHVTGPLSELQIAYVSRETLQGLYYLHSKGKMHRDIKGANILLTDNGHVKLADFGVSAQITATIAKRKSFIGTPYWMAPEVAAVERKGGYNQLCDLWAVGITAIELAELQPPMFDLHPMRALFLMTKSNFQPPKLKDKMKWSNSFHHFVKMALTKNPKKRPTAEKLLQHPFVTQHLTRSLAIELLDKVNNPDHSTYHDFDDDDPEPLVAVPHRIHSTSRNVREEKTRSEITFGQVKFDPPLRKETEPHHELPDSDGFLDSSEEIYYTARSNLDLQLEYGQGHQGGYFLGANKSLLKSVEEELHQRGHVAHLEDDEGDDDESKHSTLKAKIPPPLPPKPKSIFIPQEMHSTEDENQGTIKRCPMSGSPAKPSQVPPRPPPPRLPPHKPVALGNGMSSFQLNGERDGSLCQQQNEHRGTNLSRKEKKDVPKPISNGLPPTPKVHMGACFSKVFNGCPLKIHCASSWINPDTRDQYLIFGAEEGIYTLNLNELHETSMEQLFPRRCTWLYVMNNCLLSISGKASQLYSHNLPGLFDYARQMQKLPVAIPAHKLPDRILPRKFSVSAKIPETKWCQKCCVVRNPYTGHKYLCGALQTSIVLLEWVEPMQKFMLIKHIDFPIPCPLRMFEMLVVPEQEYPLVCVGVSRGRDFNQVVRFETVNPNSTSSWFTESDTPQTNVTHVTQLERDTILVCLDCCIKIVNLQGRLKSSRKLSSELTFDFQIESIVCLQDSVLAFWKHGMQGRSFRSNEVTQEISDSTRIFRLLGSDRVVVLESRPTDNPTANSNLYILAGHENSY

Set 1 — action: inhibitor; concentration: 10 µM; baseline: control
Target: Diamine acetyltransferase 1 (Homo sapiens, UniProt P21673)
Construct (P21673 1-171): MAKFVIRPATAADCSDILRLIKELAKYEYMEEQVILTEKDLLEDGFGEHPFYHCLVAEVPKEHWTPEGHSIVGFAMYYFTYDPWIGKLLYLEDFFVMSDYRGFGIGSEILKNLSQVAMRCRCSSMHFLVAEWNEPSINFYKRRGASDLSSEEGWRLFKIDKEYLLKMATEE
Structure (SMILES)	remaining activity [%]
COc1ccc(-c2oc3cc(OC)c(OC)c(O)c3c(=O)c2OC)cc1O	100
CS(C)(=O)=O	89
CCC(=O)c1ccccc1O	96
O=C(O)C[C@@H](O)C(=O)O	108

Set 2 — effect on: cell-free assay; technique: competition with immobilised ligand; concentration: 1 µM
Compound: C[C@@]1(Cc2ccc(C#N)cc2)C(=O)N(c2cc(Cl)cc(Cl)c2)c2ncc(C(=O)NC3(c4nc(C5CCC5)no4)CC3)n21
target	remaining binding
Mitogen-activated protein kinase kinase kinase kinase 3 (MAP4K3, Homo sapiens, UniProt Q8IVH8)	78%
Insulin-like growth factor 1 receptor (IGF1R, Homo sapiens, UniProt P08069)	100%
Megakaryocyte-associated tyrosine-protein kinase (MATK, Homo sapiens, UniProt P42679)	100%
Phosphatidylinositol 4,5-bisphosphate 3-kinase catalytic subunit beta isoform (PIK3CB, Homo sapiens, UniProt P42338)	97%
LIM domain kinase 1 (LIMK1, Homo sapiens, UniProt P53667)	90%
Beta-adrenergic receptor kinase 1 (GRK2, Homo sapiens, UniProt P25098)	100%
cAMP-dependent protein kinase catalytic subunit beta (PRKACB, Homo sapiens, UniProt P22694)	100%
Tyrosine-protein kinase SYK (SYK, Homo sapiens, UniProt P43405)	100%

Set 3 — effect on: enzyme activity; action: inhibitor; concentration: 10 µM
Target: Calcium/calmodulin-dependent protein kinase type II subunit alpha (CAMK2A, Homo sapiens, UniProt Q9UQM7)
Chain of UniProt Q9UQM7 (whole entry, looked up): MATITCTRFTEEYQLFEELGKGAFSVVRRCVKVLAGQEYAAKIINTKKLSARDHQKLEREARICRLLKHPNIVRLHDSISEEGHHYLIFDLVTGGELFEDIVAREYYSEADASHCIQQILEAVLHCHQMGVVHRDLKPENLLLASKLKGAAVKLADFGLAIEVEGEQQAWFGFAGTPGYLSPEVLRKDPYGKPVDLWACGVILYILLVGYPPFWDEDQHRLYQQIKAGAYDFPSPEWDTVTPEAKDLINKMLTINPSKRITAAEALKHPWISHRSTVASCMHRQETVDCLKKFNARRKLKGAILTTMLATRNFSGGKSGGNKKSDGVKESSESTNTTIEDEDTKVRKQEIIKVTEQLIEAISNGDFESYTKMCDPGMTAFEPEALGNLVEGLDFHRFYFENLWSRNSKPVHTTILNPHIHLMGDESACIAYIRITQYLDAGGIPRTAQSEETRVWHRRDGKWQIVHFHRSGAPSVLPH
SMILES	inhibition [%]
C=CCN1C[C@H](C(=O)N(CCCN(C)C)C(=O)NCC)C[C@@H]2c3cccc4[nH]cc(c34)C[C@H]21	0
O=C(O)c1cc(O)ccc1O	31
O=C(O)C(=O)Cc1ccc(O)cc1	-20

Further values, each from its own experiment
Compound	test	test system	setting	endpoint	value
CCCN1C(=O)[C@H](CC(C)C)NC(=O)[C@@H](N(C)C(=O)[C@H](CC2CCC2)NC(=O)[C@@H]2C[C@@H](F)CN2C(=O)[C@@](C)(O)C(F)(F)F)CCCCNC(=O)C2(CC2)NC(=O)[C@@H]1Cc1cc(Cl)ccc1Cl	immunohistochemistry	mice, NCI-H69 xenograft, tumour	intravenous, 100 mg/kg once daily, 18 h	cleaved caspase-3 positive cells	54.1% and 52.3% and 55.8%

Some of these lines once more (set 1):
Structure (SMILES)	remaining activity [%]
COc1ccc(-c2oc3cc(OC)c(OC)c(O)c3c(=O)c2OC)cc1O	100
CCC(=O)c1ccccc1O	96
CS(C)(=O)=O	89
